Measurements pooled from the literature.
A part holds a random share of what one study measured.
Chain of UniProt P45985 (whole entry, looked up): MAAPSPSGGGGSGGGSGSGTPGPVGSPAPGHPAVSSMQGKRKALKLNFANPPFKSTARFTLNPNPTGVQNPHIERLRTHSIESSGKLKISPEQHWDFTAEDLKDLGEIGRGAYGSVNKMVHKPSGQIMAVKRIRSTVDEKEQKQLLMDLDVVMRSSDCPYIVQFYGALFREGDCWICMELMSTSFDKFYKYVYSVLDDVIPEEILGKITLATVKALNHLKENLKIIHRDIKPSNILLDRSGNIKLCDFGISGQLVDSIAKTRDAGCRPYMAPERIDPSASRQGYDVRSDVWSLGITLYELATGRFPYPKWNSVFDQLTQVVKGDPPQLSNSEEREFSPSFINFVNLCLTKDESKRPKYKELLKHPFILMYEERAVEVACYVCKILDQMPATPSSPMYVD
Chain of UniProt P42336 (whole entry, unmodified, looked up): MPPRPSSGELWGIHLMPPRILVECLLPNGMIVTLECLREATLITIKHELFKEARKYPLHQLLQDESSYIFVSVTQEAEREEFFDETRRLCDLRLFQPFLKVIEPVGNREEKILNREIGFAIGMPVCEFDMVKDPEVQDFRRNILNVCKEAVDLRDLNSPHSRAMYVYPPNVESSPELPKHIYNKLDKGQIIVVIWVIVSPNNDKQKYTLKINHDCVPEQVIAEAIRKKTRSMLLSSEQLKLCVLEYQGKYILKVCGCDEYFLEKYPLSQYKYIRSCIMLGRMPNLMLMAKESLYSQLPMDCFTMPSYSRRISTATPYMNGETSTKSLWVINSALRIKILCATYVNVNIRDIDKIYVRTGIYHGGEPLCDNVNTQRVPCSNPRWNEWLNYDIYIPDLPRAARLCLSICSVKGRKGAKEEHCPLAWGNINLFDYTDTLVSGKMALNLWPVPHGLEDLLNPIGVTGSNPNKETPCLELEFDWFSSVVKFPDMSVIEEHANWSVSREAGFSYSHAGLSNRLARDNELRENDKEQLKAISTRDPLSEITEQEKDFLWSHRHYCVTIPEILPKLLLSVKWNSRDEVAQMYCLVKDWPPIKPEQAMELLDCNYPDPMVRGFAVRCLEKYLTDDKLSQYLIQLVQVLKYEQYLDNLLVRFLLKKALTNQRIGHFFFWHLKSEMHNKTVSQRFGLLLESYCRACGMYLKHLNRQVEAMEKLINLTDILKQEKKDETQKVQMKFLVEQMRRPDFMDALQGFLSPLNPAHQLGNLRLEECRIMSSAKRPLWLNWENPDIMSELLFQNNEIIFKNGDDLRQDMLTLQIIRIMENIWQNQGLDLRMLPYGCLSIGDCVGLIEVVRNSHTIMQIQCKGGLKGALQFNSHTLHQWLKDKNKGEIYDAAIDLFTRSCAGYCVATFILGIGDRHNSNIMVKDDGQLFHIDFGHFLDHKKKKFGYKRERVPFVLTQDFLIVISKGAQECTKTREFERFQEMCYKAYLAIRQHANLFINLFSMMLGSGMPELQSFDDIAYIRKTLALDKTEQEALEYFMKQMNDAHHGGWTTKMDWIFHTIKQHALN
Chain of UniProt Q15375 (whole entry, looked up): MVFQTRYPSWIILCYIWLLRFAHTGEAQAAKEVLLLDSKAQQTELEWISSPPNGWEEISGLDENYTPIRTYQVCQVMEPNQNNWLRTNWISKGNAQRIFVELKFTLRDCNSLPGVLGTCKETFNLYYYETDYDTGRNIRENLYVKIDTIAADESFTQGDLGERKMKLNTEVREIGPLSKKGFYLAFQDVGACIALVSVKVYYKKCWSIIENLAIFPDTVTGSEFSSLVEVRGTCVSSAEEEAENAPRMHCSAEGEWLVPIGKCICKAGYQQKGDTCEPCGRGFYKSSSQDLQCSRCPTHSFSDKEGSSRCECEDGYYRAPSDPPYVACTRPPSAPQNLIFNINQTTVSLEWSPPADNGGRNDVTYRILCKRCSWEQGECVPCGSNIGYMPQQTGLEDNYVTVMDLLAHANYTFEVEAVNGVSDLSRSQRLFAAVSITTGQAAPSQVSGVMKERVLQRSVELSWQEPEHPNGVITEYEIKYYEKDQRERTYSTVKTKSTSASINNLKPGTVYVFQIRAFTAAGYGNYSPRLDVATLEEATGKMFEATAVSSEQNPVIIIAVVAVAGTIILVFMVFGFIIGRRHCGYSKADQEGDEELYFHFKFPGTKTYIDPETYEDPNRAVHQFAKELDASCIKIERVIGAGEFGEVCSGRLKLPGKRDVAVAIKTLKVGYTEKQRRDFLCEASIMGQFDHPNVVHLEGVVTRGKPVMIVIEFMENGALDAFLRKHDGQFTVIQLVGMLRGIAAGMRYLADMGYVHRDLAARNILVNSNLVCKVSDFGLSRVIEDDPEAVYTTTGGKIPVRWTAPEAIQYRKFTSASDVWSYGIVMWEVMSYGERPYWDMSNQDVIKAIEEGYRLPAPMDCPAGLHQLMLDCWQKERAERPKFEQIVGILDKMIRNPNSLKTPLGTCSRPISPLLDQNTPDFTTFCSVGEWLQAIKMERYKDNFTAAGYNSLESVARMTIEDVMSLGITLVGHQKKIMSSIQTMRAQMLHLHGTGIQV
Chain of UniProt P51956 (whole entry, looked up): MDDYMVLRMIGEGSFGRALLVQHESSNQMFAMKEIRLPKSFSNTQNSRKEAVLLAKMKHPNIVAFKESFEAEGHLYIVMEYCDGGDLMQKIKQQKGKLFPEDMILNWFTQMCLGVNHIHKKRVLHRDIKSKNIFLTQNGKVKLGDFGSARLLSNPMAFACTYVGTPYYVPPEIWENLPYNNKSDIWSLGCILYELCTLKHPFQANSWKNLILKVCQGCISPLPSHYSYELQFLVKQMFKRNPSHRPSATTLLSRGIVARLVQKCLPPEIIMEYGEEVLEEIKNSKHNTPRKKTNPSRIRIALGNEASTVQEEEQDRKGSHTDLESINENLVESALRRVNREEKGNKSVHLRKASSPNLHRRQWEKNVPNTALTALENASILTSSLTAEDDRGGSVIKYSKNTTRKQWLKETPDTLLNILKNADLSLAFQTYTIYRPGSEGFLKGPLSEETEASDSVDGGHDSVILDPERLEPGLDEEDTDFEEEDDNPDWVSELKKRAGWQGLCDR
Chain of UniProt P53671 (whole entry, looked up): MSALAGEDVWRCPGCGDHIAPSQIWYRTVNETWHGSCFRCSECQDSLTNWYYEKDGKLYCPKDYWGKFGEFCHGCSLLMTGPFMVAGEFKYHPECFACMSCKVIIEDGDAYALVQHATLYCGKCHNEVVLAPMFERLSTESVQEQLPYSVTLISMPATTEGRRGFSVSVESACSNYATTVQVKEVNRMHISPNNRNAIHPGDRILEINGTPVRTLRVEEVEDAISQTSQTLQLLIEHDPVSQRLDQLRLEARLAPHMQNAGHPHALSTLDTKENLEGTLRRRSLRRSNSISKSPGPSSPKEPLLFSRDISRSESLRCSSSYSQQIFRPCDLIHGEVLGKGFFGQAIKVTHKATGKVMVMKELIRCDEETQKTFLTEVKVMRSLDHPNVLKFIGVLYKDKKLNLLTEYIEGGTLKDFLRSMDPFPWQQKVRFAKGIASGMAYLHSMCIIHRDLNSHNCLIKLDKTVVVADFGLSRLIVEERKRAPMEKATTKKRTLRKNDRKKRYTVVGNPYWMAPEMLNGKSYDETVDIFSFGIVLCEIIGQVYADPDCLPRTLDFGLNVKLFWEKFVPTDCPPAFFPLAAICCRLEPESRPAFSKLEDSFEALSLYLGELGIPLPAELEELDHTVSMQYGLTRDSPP
Chain of UniProt Q56UN5 (whole entry, looked up): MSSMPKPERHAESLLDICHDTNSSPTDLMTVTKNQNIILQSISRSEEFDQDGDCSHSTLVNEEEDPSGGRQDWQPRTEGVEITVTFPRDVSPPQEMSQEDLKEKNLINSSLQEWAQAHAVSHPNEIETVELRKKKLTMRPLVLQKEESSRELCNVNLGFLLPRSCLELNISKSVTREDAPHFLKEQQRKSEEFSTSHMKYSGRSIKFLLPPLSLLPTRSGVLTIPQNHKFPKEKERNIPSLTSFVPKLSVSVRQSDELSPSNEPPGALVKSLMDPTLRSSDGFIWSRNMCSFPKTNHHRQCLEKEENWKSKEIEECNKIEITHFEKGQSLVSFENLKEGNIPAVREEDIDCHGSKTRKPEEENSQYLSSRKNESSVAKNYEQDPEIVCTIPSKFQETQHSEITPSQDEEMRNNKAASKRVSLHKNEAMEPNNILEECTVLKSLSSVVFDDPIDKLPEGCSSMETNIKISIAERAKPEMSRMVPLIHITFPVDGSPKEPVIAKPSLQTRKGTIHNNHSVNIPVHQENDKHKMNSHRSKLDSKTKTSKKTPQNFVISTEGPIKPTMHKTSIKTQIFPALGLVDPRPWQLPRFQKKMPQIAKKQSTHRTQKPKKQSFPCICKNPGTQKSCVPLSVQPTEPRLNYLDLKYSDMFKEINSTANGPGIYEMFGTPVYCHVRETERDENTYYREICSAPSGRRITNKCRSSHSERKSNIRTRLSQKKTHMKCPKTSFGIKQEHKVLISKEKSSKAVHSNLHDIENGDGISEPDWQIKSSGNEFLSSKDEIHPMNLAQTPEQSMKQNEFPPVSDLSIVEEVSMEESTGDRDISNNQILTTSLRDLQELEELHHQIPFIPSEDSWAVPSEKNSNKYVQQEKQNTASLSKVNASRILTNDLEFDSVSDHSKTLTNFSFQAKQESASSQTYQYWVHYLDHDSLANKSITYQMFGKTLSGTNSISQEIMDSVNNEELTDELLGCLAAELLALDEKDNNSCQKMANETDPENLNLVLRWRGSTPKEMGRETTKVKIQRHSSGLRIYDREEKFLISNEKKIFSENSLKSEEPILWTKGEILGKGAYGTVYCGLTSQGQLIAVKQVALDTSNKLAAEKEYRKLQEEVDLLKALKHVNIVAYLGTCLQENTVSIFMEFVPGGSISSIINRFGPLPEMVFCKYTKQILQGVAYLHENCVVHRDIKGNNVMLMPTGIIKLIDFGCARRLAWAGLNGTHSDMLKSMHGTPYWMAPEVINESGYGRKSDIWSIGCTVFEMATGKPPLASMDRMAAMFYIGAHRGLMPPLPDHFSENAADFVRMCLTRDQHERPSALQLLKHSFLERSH

Series 1
Compound: CCC(=N\O)/C(C)=C/c1ccc(F)cc1
Read-out: cell-free assay
Technique: competition with immobilised ligand
Tested at: 1 µM
Endpoint: remaining binding
MET (Homo sapiens, UniProt P08581, Y1235D): 85%
MAP3K19 (Homo sapiens, UniProt Q56UN5): 66%
NEK3 (Homo sapiens, UniProt P51956): 100%
PIK3CA (Homo sapiens, UniProt P42336, Q546K): 91%
DMPK (Homo sapiens, UniProt Q09013): 88%
STK36 (Homo sapiens, UniProt Q9NRP7): 84%
CDK13 (Homo sapiens, UniProt Q14004): 95%
STK10 (Homo sapiens, UniProt O94804): 76%
MAP2K4 (Homo sapiens, UniProt P45985): 75%
CSNK2A2 (Homo sapiens, UniProt P19784): 100%
GSK3B (Homo sapiens, UniProt P49841): 79%
EPHA7 (Homo sapiens, UniProt Q15375): 86%
LIM domain kinase 2 (LIMK2, Homo sapiens, UniProt P53671): 80%
MAP2K1 (Homo sapiens, UniProt Q02750): 95%
STK16 (Homo sapiens, UniProt O75716): 97%
MAPK11 (Homo sapiens, UniProt Q15759): 82%

Series 2
Target: Histone acetyltransferase KAT6A, winged helix 2, GST fusion (KAT6A, Homo sapiens, UniProt Q92794, residues 85-181)
Technique: protein binding microarray
Molecule type: double-stranded DNA, one strand shown
Medium: in vitro
Tested at: not given
Notes: 8-mer, flanks averaged, mean of 2 arrays, mostly near background
Baseline: not given
Reading: higher = stronger binding
Endpoint: E-score
Residues (chain): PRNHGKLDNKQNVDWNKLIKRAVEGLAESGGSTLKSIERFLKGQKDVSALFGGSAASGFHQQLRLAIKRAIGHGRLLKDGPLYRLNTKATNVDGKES
ATTATTAC: -0.0572
AATGACTC: -0.0946
AGGGTTTC: -0.0131
CAGTATAG: 0.0877
ATGATGGG: -0.219
GCATAGGA: -0.037
ATTCGAAA: 0.0123
ACGGAAAA: -0.083

Series 3
Species: human
Medium: microsomes or S9
Tested at: 2 µM
Time: 0.5 h
Endpoint: remaining compound
CC(C)(C)CCN1CCN(C(=O)c2nccnc2N)CC1: 99.1%
COc1cc(C2CCN(C(=O)OC(C)(C)C)CC2)ccc1Nc1ncc(Cl)c2[nH]c3c(S(=O)(=O)C(C)C)cccc3c12: 46.8%
Cc1c(O)ccc2c1oc1c(-c3cccnc3O)c3cnn(C(C)C)c3nc12: 47.2%
Cc1ccc(C(C)NS(=O)(=O)c2ccc(F)c(F)c2)c(C)c1 (stereo not drawn): < 1%

Series 4
Target: PABPC1L2, full length, GST fusion (mouse, UniProt A0ABA7IW68)
Technique: RNAcompete
Molecule type: RNA
Medium: in vitro
Tested at: 20 nM
Notes: 7-mer, probes averaged, single round
Baseline: mean of 7-mers
Reading: higher = stronger binding
Endpoint: 7-mer Z-score
Target sequence (chain): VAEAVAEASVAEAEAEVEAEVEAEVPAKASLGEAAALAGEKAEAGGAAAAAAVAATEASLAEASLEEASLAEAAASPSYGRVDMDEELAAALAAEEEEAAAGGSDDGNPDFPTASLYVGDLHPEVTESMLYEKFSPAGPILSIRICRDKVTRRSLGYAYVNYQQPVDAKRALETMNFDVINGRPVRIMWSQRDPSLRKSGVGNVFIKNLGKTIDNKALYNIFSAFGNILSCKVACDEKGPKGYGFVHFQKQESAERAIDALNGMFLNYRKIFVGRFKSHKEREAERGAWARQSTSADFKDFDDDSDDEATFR
GACCUGC: -0.262
ACCCAAC: -0.277
CUCUGGC: -0.24
AUCCAAU: -0.0174
GUGCCAC: -0.217
UCCUAAC: -0.351
GUGUGUC: -0.26
ACCAACC: -0.0627
